Assay results pooled from the literature.
± gives the spread as reported.

| Molecule | test | system | setting | scale | endpoint | value |
| --- | --- | --- | --- | --- | --- | --- |
| CCCCSc1nnc(COc2ccc3c(c2)NC(=O)CC3)o1 | forced swimming test | mice | 40 mg/kg, 0.5 h | relative to: control | immobility duration decrease | 15.6% |
| Neuropeptide Y | – | wild-type mouse, liver | dose not given | relative to: untreated | Col1a1 mRNA level | increased |
| NC(=O)c1nc(F)c[nH]c1=O | – | pooled human liver S9 | up to 3000 µM, added: acetaminophen 2 mM | – | acetaminophen glucuronidation inhibition | no effect |
| insulin glulisine | – | obese type 2 diabetes patients | subcutaneous, 0.2 U/kg, before standard meal | – | maximum glucose excursion | 33 mg/dL |
| CCCOc1ccc(S(=O)(=O)NCCC2CCCN2C)cc1-c1nc2c(CCC)nn(C)c2c(=O)[nH]1 (stereo not shown) | ramp cycle exercise test | human adolescents after Fontan palliation | oral, 87.5 mg twice daily, day 5 | – | maximal VO2 | 28.2 ± 6 mL/kg/min |
| CCOC(=O)C=C1SC(NN=C2c3ccccc3-c3nc4cc(F)ccc4nc32)=NC1=O | – | mouse, STZ-induced diabetes | oral, 25 mg/kg, day 3 | – | blood glucose | 410 ± 57.6 mg/dL |
| LRKLRKRLLRDWLKAFYDKVAEKLKEAF (N-acetyl, C-amide) | monocyte chemotactic activity | peptide, human aortic endothelial cells, female apoE-null mice | retro-orbital, 100 µg 3 times weekly for 15 days | relative to: human LDL | plasma inflammatory index | decreased |
| CCCCCCSc1nnc(COc2ccc3c(c2)NC(=O)CC3)o1 | forced swimming test | mice | 40 mg/kg, 0.5 h | relative to: control | immobility duration decrease | 9.67% |
| O=C1CSC(N=C2c3ccccc3-c3nc4cc(F)ccc4nc32)=N1 | – | mouse, STZ-induced diabetes | oral, 25 mg/kg, day 3 | – | blood glucose | 311 ± 19.5 mg/dL |
| C=CC(=O)N1CCC[C@@H](n2nc(-c3ccc(Oc4ccccc4)cc3)c3c(N)ncnc32)C1 | – | human platelets, collagen, arterial shear flow | 70 nM | relative to: vehicle | platelet adhesion | no effect |
| CC1(C)CCC(CN2CCN(c3ccc(C(=O)NS(=O)(=O)c4ccc(NCC5CCOCC5)c([N+](=O)[O-])c4)c(Oc4cnc5[nH]ccc5c4)c3)CC2)=C(c2ccc(Cl)cc2)C1 | cell kill, PI exclusion flow cytometry | normal CD3+ T lymphocytes, dog, peripheral blood | 24 h | – | EC50 | 525 ± 650 nM |
| CCOc1ccc(C[C@@H](N)C(=O)N[C@@H](Cc2ccccc2)C(=O)NC2CCN(C(=N)N)CC2)cc1.O=C(O)C(F)(F)F.O=C(O)C(F)(F)F | – | rat | sc osmotic pump, 0.58 mg/kg/day, 48 h, added: VEGF 10 ng/eye intravitreal | relative to: baseline | retinal thickness increase | 21.4 ± 4.6 µm |
| ILPWKWPWWPWRR | carboxyfluorescein release | peptide, EYPC vesicles | 10 µg/mL, 250 s, pH 7.4, 25 °C | relative to: Triton X-100 | leakage | 37% |
| insulin glulisine | euglycemic clamp | healthy volunteers | subcutaneous, 0.15 U/kg, 8 h | – | mean duration of action | 189 ± 33 min |
| insulin lispro | euglycemic clamp | obese type 2 diabetic patients | subcutaneous, 10 units, 8 h | – | maximum glucose infusion rate | 0.6 mg/kg/min |
| ANKHYF | inhibitor, light transmission aggregometry | peptide, human platelet-rich plasma | 500 µg/mL, added: ADP 4 µM | – | platelet aggregation | inactive |
| CC(C)(Sc1ccncc1-c1ccc(C#N)c2ccccc12)C(=O)O | – | male gout patients, urine | 300 mg, 0 to 24 h, added: verinurad 10 mg alone or combined | relative to: baseline | urinary uric acid excretion | 9.88% |
| O=C(NC[C@H]1CN(c2ccc(N3CCOCC3=O)cc2)C(=O)O1)c1ccc(Cl)s1 | functional antithrombin | human, plasma | dose not given, drug plasma level above 100 ng/mL | relative to: pretreatment samples | antithrombin activity increase | 24% |
| COCCc1ccc(OCC(O)CNC(C)C)cc1 (stereo not shown) | – | rats, adrenaline arrhythmia, plasma | intragastric, 2.57 g/kg daily, 14 days | – | cAMP level | 7.61 ± 0.28 nmol/L |
| CCCCc1ncc(CO)n1Cc1ccc(-c2ccccc2-c2nn[nH]n2)cc1 | – | mouse DSS colitis | transanal, 100 mg/kg/day | – | time to heme-positive stool | 7 ± 1.4 days |

| Molecule | test | system | setting | scale | endpoint | value |
| --- | --- | --- | --- | --- | --- | --- |
| O=C(NC[C@H]1CN(c2ccc(N3CCOCC3=O)cc2)C(=O)O1)c1ccc(Cl)s1 | prothrombin time, population PK/PD Emax model | human, plasma | – | – | EC50 | 0.418 µg/mL |
| O=C(NC[C@H]1CN(c2ccc(N3CCOCC3=O)cc2)C(=O)O1)c1ccc(Cl)s1 | – | human, mild renal impairment, plasma | oral, 10 mg, added: erythromycin at steady state | relative to: same subjects, compound alone | prothrombin time Emax increase | ~14% |
| CC(C)C[C@H](NC(=O)[C@H](CO)NC(=O)[C@H](CCCNC(=N)N)NC(=O)[C@H](CC(=O)O)NC(=O)[C@H](CCC(=O)O)NC(=O)[C@H](C)NC(=O)[C@@H]1CCCN1C(=O)[C@H](C)NC(=O)[C@H](CCC(=O)O)NC(=O)[C@@H]1CCCN1C(=O)[C@@H]1CCCN1)C(N)=O | HPLC-EC | F344 rat, normal, substantia nigra | intranasal, 1000 µg, 5 days/week, 3 weeks | – | dopamine level | 416 ± 71 ng/g |
| CC(=O)Nc1cccc(OCc2nnc(SCc3cccc(Cl)c3)o2)c1 | forced swimming test | mice | 40 mg/kg, 0.5 h | relative to: control | immobility duration decrease | 45.9% |
| O=C1N=C(NN=C2C(=O)Nc3ccccc32)SC1=C1c2ccccc2-c2nc3cc(F)ccc3nc21 | – | mouse, STZ-induced diabetes | oral, 25 mg/kg, day 3 | – | blood glucose | 341 ± 39.2 mg/dL |
| neuropeptide Y | – | Sprague Dawley rat, urethane-anaesthetised | intravenous, 5 nmol | – | heart rate response onset time | 27 ± 5 s |
| CCC1=C[C@@H]2CN(C1)Cc1c([nH]c3ccccc13)[C@@](C(=O)OC)(c1cc3c(cc1OC)N(C)[C@H]1[C@@](O)(C(=O)OC)[C@H](OC(C)=O)[C@]4(CC)C=CCN5CC[C@]31[C@@H]54)C2 | tumour volume | mice, MIA PaCa-2 xenograft | – | relative to: vehicle | minimum effective dose | 30 mg/m² |
| Polymyxin B | – | human whole blood | 500 ng/mL, 4 h, 37 °C, added: E. coli LPS 0.5 ng/mL | relative to: LPS without compound | TNF-α release | 2.1 ± 0.7% |
| CCCCCCCCCCCCCCCC(=O)NCCCC[C@H](NC(=O)[C@H](CCC(=O)O)NC(=O)[C@H](CCC(=O)O)NC(=O)[C@H](Cc1ccc(O)cc1)NC(=O)[C@H](CCC(=O)O)NC(=O)CCCCCNC(=S)Nc1ccc2c(c1)C(=O)OC21c2ccc(O)cc2Oc2cc(O)ccc21)C(=O)N[C@@H](Cc1ccc(O)cc1)C(=O)N[C@@H](CCC(=O)O)C(=O)NCC(=O)NCC(=O)NCC(=O)NCC(=O)N[C@@H](CO)C(=O)NCC(=O)NCC(=O)NCC(=O)NCC(=O)N[C@@H](CO)C(=O)N[C@@H](Cc1ccccc1)C(=O)N[C@@H](CC(N)=O)C(=O)N1CCC[C@H]1C(=O)N[C@@H](CCCNC(=N)N)C(=O)N[C@@H](Cc1c[nH]cn1)C(=O)NC(C)(C)C(=O)N[C@@H](CCC(=O)O)C(=O)NCC(=O)N[C@H](C(=O)N[C@@H](Cc1ccccc1)C(=O)N[C@H](C(=O)N[C@@H](CO)C(=O)N[C@@H](CC(=O)O)C(=O)N[C@H](C(=O)N[C@@H](CO)C(=O)N[C@@H](CO)C(=O)N[C@@H](Cc1ccc(O)cc1)C(=O)N[C@@H](CC(C)C)C(=O)N[C@@H](CCC(=O)O)C(=O)NCC(=O)N[C@@H](CCC(N)=O)C(=O)N[C@@H](C)C(=O)N[C@@H](C)C(=O)N[C@@H](CCCCN)C(=O)N[C@@H](CCC(=O)O)C(=O)N[C@@H](Cc1ccccc1)C(=O)N[C@H](C(=O)N[C@@H](C)C(=O)N[C@@H](Cc1c[nH]c2ccccc12)C(=O)N[C@@H](CC(C)C)C(=O)N[C@H](C(=O)N[C@@H](CCCCN)C(=O)NCC(=O)N[C@@H](CCCNC(=N)N)C(=O)NCC(=O)O)C(C)C)[C@@H](C)CC)C(C)C)[C@@H](C)O)[C@@H](C)O | – | db/db mouse | subcutaneous, 10 nmol/kg, 0.5 h before glucose, AUC 0-120 min, added: oral glucose 2.0 g/kg | relative to: saline | glucose reduction | 25.9% |
| COc1ccc2c(c1)c(CC(=O)O)c(C)n2C(=O)c1ccc(Cl)cc1 | multiplex bead immunoassay, item: IL-2 | CD-1 mice, serum | ip, 20 mg/kg, three-injection regimen, added: LPS 3 mg/kg | – | cytokine level | 7.4 ± 1.5 pg/mL |
| C=C1C2CCC(C2)C1(C)C (stereo not shown) | two-choice feeding trial | Sylvilagus nuttallii | 1% dry weight in diet, 72 h, added: monoterpene mixture 1% dry weight | – | proportion of food consumed | 85 ± 0.04% |
| hen egg-white lysozyme | IL-2 secretion | Iso.187 T cell hybridoma, B10.BR mouse | overnight, added: M12.C3.F6 antigen-presenting cells | – | highest concentration without response | > 30 µM |
| CC(C)n1cnc(-c2ccc(F)cc2)c1-c1ncc(C(=O)Nc2ccc(N3CCN(C)CC3)cc2)[nH]1 | Olink proteomics | IPF patients, serum | 60 mg once daily, adjusted p below 0.05, unit not given | relative to: placebo | differentially abundant proteins | 22 |
| Cc1cc(C)c(/C=C2\C(=O)Nc3ccccc32)[nH]1 | MRI, enhancing lesion | human | concentration not given, 2.6 months | – | tumour area | 4.6 cm² |
| CCOc1ccc(Cc2cc([C@@H]3O[C@H](SC)[C@@H](O)[C@H](O)[C@H]3O)ccc2Cl)cc1 | – | healthy Chinese subjects | oral, 200 mg once daily, 24 h, day 1 | – | urinary glucose excretion | 33.9 g |
| O=C(/C=C/c1ccc(O)c(O)c1)O[C@H](Cc1ccc(O)c(O)c1)C(=O)O | FRAP | – | unit not given | relative to: Trolox | FRAP antioxidant capacity | 1260 ± 4.5 |
| O=C1CCc2ccc(OCc3nnc(SCc4ccc(F)cc4)o3)cc2N1 | forced swimming test | mice | 40 mg/kg, 0.5 h | relative to: control | immobility duration decrease | 36.3% |
| C=CC(=O)N(C)CCOc1c(N)ncnc1-c1cc(F)cc(NC(=O)c2ccc(C3CC3)cc2F)c1C | inhibitor, light transmission aggregometry | human platelet-rich plasma | concentration not given, 30 min, 37 °C, added: CXCL12 or CRP-XL | – | platelet aggregation | inhibited |
| CS/C(S)=N/CCCC[S+](C)[O-] (racemic) | item: Alad | rat, mammary gland | oral gavage, 200 mg/kg, 4 days daily | relative to: vehicle | mRNA level | 9.85 fold |
| O=C(/C=C(/C=C/c1cccnc1)NCCCO)/C=C/c1cccnc1 | DPPH scavenging | – | – | – | EC50 | > 200000 nM |

For quick reference, copied from above:
| Molecule | test | system | setting | scale | endpoint | value |
| --- | --- | --- | --- | --- | --- | --- |
| CC(C)C[C@H](NC(=O)[C@H](CO)NC(=O)[C@H](CCCNC(=N)N)NC(=O)[C@H](CC(=O)O)NC(=O)[C@H](CCC(=O)O)NC(=O)[C@H](C)NC(=O)[C@@H]1CCCN1C(=O)[C@H](C)NC(=O)[C@H](CCC(=O)O)NC(=O)[C@@H]1CCCN1C(=O)[C@@H]1CCCN1)C(N)=O | HPLC-EC | F344 rat, normal, substantia nigra | intranasal, 1000 µg, 5 days/week, 3 weeks | – | dopamine level | 416 ± 71 ng/g |
| neuropeptide Y | – | Sprague Dawley rat, urethane-anaesthetised | intravenous, 5 nmol | – | heart rate response onset time | 27 ± 5 s |
| O=C(NC[C@H]1CN(c2ccc(N3CCOCC3=O)cc2)C(=O)O1)c1ccc(Cl)s1 | prothrombin time, population PK/PD Emax model | human, plasma | – | – | EC50 | 0.418 µg/mL |
| insulin glulisine | – | obese type 2 diabetes patients | subcutaneous, 0.2 U/kg, before standard meal | – | maximum glucose excursion | 33 mg/dL |
